Experimental data pooled from the literature.
Each line is one published result; not all experiments were run side by side.
kasA: 3-oxoacyl-[acyl-carrier-protein] synthase 1 (kasA, Mycobacterium tuberculosis, UniProt P9WQD9)

| Compound | target or system | test | test system | conditions | how to read | endpoint | value |
| --- | --- | --- | --- | --- | --- | --- | --- |
| O=C(Nc1cccnn1)N1CCC(=Cc2cccc(Oc3ccc(C(F)(F)F)cn3)c2)CC1 | IP3 receptor, rat | binding | – | 10 µM, added: [3H]IP3 | – | inhibition | -1% |
| O=C(c1ccc(Cl)cc1)N1CCN2C(=O)N(OC(=O)N3CCOc4ccccc43)C(=O)C2C1 (stereo not shown) | Platelet-activating factor acetylhydrolase IB subunit alpha2 (Homo sapiens, UniProt P68402) | enzyme activity, inhibitor, MS-based ABPP | SW-620 in situ | 10 µM, 2 h, 37 °C | baseline: compound over DMSO, lower = stronger inhibition | median ratio | 1.13 |
| O=C(Nc1cnccc1Cl)N1CCN(Cc2ccc3c(c2)OC(F)(F)O3)CC1 | GABBR1 (Homo sapiens, UniProt Q9UBS5) | radioligand binding | – | 50 µM, added: [3H]CGP-54626 | – | inhibition of binding | 4% |
| Oc1ccc2c3c1O[C@H]1[C@@H](O)CC[C@@]4(O)[C@@H](C2)N(CC2CCC2)CC[C@]314 | Adhesion G protein-coupled receptor F5 (ADGRF5, Homo sapiens, UniProt Q8IZF2) | β-arrestin recruitment, TANGO luminescence, refers to: GPR116 | – | concentration not given | baseline: basal luminescence | log2 fold change | -0.00187 |
| CC[C@H](C)C(=O)O[C@H]1C[C@@H](C)C=C2C=C[C@H](C)[C@H](CC[C@@H]3C[C@@H](O)CC(=O)O3)[C@H]21 | kasA | thermal stabilization, nanoDSF | – | 100 µM | – | ΔTm | -0.14 °C |
| COc1ccc(N2C(=O)N(c3c(C)cccc3Cl)Cc3cnc(Nc4ccc(C5CCN(C)CC5)cc4OC)nc32)nc1 | PRKCB (Homo sapiens, UniProt P05771) | kinase activity, inhibitor | – | 0.5 µM, kinase PKC-BETA1 | – | inhibition | 4.31% |
| C[C@H]1CN(c2n[nH]c3nc(N[C@H]4CC[C@H](NS(=O)(=O)CCC(F)(F)F)CC4)ncc23)CCO1 | Stalled ribosome sensor GCN1 (Homo sapiens, UniProt Q92616) | Kinobeads competition, refers to: GCN1L1 | – | 0.16 µM, unit not given | baseline: vehicle | remaining binding | 1 |
| [2H]c1c([2H])c([C@]2([2H])CCCN2C(=O)C(C)(C)Oc2ccc3cn[nH]c3c2)c([2H])c([2H])c1C([2H])([2H])[2H] | SRPK1 (Homo sapiens, UniProt Q96SB4) | KINOMEscan | – | 1 µM | baseline: DMSO control | remaining binding | 100% |
| Cc1cc(S(=O)(=O)Nc2ccc3cnn(C(C)C)c3c2)c(C)s1 | kasA | thermal stabilization, nanoDSF | – | 100 µM | – | ΔTm | 0.13 °C |
| CC(NC(C)(C)C)C(=O)c1cccc(Cl)c1 (stereo not shown) | Voltage-dependent P/Q-type calcium channel subunit alpha-1A (Homo sapiens, UniProt O00555) | ion current, antagonist, automated patch clamp | – | – | – | IC30 | 10.5 µM |
| CCCc1nn(C)c2c(=O)[nH]c(-c3cc(S(=O)(=O)N4CCN(C)CC4)ccc3OCC)nc12 | kasA | thermal stabilization, nanoDSF | – | 100 µM | – | ΔTm | 6.66 °C |
| CC[C@H](C)[C@H](NC(=O)CNC(=O)[C@@H](N)CCCCN)C(=O)N[C@@H](CC(C)C)C(=O)N[C@@H](CCCCN)C(=O)N[C@@H](CCCNC(=N)N)C(=O)N[C@@H](CCC(=O)O)C(=O)N[C@@H](CCCCN)C(=O)N[C@@H](CCCNC(=N)N)C(=O)N[C@@H](CC(C)C)C(=O)N[C@@H](CCCNC(=N)N)C(=O)N[C@@H](CCCNC(=N)N)C(=O)N[C@@H](CCCCN)C(=O)N[C@@H](CC(N)=O)C(=O)N[C@H](C(=O)N[C@@H](Cc1c[nH]cn1)C(=O)N[C@@H](Cc1c[nH]c2ccccc12)C(=O)N1CCC[C@H]1C(=O)N[C@@H](CCC(=O)O)C(=O)N[C@@H](CCC(=O)O)C(=O)NCC(=O)N[C@@H](CCCCN)C(=O)N[C@@H](CC(C)C)C(=O)N[C@@H](CCCNC(=N)N)C(=O)N[C@@H](CCC(=O)O)C(=O)N[C@@H](Cc1ccc(O)cc1)C(=O)N[C@@H](Cc1ccccc1)C(=O)N[C@@H](Cc1ccc(O)cc1)C(=O)N[C@@H](Cc1ccccc1)C(=O)N[C@@H](CCC(=O)O)C(=O)N[C@@H](CC(C)C)C(=O)N[C@@H](CC(=O)O)C(=O)N[C@@H](CCC(=O)O)C(=O)N[C@@H](C)C(=O)N[C@@H](CCC(=O)O)C(=O)N[C@@H](CCCNC(=N)N)C(=O)N[C@H](C(=O)N[C@@H](CC(N)=O)C(=O)N[C@H](C(=O)O)C(C)C)C(C)C)C(C)C | HeLa and HEK-293T cells | phosphatase bead binding, competitive inhibitor, PIB pulldown iBAQ LC-MS/MS, refers to: STRN4 | – | concentration not given | baseline: untreated control | log2 fold change | -0.24 |
| CN1CCN(c2cc(-c3ccncc3)c(-c3ccc4ccccc4c3)nn2)CC1 | GPR119 (Homo sapiens, UniProt Q8TDV5) | agonist, FLIPR | – | 12.5 µM | – | activation | 11.9% |

Some of these lines once more:
| Compound | target or system | test | test system | conditions | how to read | endpoint | value |
| --- | --- | --- | --- | --- | --- | --- | --- |
| CC(NC(C)(C)C)C(=O)c1cccc(Cl)c1 (stereo not shown) | Voltage-dependent P/Q-type calcium channel subunit alpha-1A (Homo sapiens, UniProt O00555) | ion current, antagonist, automated patch clamp | – | – | – | IC30 | 10.5 µM |
| CCCc1nn(C)c2c(=O)[nH]c(-c3cc(S(=O)(=O)N4CCN(C)CC4)ccc3OCC)nc12 | kasA | thermal stabilization, nanoDSF | – | 100 µM | – | ΔTm | 6.66 °C |
